Experimental data from different studies.
Parts stem from different laboratories: compare values within a part only. Changes are numbered by the printed parent chain.

Set 1
Target: Centromere-binding protein 1, full length, N-terminal tag (CBF1, Saccharomyces cerevisiae, UniProt P17106, residues 1-351)
Chain of UniProt P17106 (whole entry, looked up): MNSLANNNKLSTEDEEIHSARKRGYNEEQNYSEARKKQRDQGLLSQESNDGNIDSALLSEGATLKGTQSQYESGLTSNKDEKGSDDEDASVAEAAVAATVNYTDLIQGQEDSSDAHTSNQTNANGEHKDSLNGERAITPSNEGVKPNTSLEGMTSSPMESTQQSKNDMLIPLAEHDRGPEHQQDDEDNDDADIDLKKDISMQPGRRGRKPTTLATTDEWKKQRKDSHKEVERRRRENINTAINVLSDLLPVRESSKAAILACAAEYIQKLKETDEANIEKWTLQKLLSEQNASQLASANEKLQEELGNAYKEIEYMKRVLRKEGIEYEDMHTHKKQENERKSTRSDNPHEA
Method: protein-binding microarray
Form: double-stranded DNA, one strand shown
Sample: in vitro
Tested at: 0.8 µM
Notes: whole 60-bp probe, no competitor
Reading: higher = stronger binding
Strand | fluorescence intensity
GAACATACACATATATGCGTGCATGTTGGCAAGTAGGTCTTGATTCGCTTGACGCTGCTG | 534 a.u.
CCTAACTACTATAACCACATGCGATAGCTTCGTACAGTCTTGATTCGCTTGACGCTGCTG | 594 a.u.
CTAATATAGCATTCACGCCTGGTACCACAGGAGTTCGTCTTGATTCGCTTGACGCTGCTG | 527 a.u.
CTACGAGAAAAGTATTCTGATGTCCAATTCTTCTTCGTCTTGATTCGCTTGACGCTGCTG | 511 a.u.
GAACAAACTTATGCCAACGTGACCATTTATTATTAGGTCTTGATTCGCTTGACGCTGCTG | 3730 a.u.
CCTAACTACTATAGGATCACCAGATAGCTTCGTACAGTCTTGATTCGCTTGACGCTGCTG | 533 a.u.
CTAATATGATGAGATCATGTGCAAATGATTAACTTCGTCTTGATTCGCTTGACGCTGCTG | 1870 a.u.
GAAGTCGAAGGCAGAGACGTGGCACTGGCGATTTAGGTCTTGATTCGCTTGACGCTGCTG | 474 a.u.
CTAATTCTTTTACATCAGGCATAAAGTTTCCGATTCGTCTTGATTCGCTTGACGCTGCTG | 532 a.u.
CTACGCTGCGTAAAACATCAGAGACGTATGTAATTCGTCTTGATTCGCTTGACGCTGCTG | 487 a.u.
GAACCCTGCCAATTAGACGTGATGAAAAATATTTAGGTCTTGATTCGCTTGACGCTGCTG | 672 a.u.
CTACCGTTCTGTACGGACCTGACGTTGACTGTGTTCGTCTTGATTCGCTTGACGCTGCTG | 524 a.u.
CTATCCTCTCAGTCTCACGTTTCTATGCGGGTCTTCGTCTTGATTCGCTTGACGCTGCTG | 651 a.u.
GAATCCTAGGTTTGTCACGACGGTGGCCACCGGTAGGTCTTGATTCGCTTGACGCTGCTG | 623 a.u.
GAACGCGGAGTCGCTGATGACGCAATAGGCACATAGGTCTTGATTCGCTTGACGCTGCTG | 524 a.u.
GAAATTGTATCGTGTCACCCCCATGTCATATTATAGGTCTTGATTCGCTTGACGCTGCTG | 650 a.u.
CTAGCAACAACTCATGATGTAATAGGATAATGTTTCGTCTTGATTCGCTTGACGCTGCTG | 516 a.u.
GAAGCTGGCTTTGGTGGTGTTTTGCCAGATATATAGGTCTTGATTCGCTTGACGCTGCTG | 508 a.u.
GAATAATGATTTCTTTTCGTGGCTTTAGAGATTTAGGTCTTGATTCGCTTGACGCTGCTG | 479 a.u.

Set 2
Target: Prothrombin, mature alpha-thrombin (F2, Homo sapiens, UniProt P00734)
Method: aptamer microarray, sandwich
Form: DNA with 2'F-ANA
Sample: in vitro
Tested at: 200 nM
Notes: whole 15-mer aptamer, many near background
Added: Cy3 exosite-II aptamer, 400 nM
Reading: higher = stronger binding
Strand: GGTTGGTGTGGTTGG
Modification | mean fluorescence intensity [a.u.]
2'F-ANA at 1 2 7 8 10 11 15 | 54.2
2'F-ANA at 2 3 7 9 13 14 | 399
2'F-ANA at 2 4 5 7 10 11 12 14 15 | 45.1
2'F-ANA at 3 8 | 1170
2'F-ANA at 1 6 9 10 11 | 52.5
2'F-ANA at 2 3 7 8 10 12 13 15 | 387
2'F-ANA at 2 3 5 6 7 8 9 11 12 | 177
2'F-ANA at 1 3 6 7 8 10 14 | 64
2'F-ANA at 1 2 4 6 9 12 13 14 | 53.8
2'F-ANA at 2 4 7 8 9 13 15 | 209
2'F-ANA at 1 5 6 7 9 10 11 14 15 | 117
2'F-ANA at 2 3 4 5 6 8 11 12 13 14 | 62.1
2'F-ANA at 1 5 7 8 10 12 13 | 50.6
2'F-ANA at 1 2 4 5 6 9 10 11 13 14 | 48.5
2'F-ANA at 1 2 3 4 6 7 8 10 13 | 66.8
2'F-ANA at 1 2 4 5 13 | 44.4
2'F-ANA at 1 3 4 5 6 7 8 10 11 14 15 | 58.4
2'F-ANA at 2 3 4 5 7 9 11 12 | 183

Set 3
Target: Interferon regulatory factor 7, full length, phosphomimetic (IRF7, Homo sapiens, UniProt Q92985, residues 1-503, S471D/S472D/S475D/S476D/S477D/S483D/S484D/S487D)
Method: protein-binding microarray
Form: double-stranded DNA, one strand shown
Sample: in vitro
Tested at: 2200 nM top
Notes: 60-bp whole probe
Added: salmon DNA 0.4 mg/ml
Baseline: random background probes
Reading: higher = stronger binding
All sequences stand within: GCCTAGCAC … GTCTTGATTCGCTTGACGCTGCTG
Construct (chain): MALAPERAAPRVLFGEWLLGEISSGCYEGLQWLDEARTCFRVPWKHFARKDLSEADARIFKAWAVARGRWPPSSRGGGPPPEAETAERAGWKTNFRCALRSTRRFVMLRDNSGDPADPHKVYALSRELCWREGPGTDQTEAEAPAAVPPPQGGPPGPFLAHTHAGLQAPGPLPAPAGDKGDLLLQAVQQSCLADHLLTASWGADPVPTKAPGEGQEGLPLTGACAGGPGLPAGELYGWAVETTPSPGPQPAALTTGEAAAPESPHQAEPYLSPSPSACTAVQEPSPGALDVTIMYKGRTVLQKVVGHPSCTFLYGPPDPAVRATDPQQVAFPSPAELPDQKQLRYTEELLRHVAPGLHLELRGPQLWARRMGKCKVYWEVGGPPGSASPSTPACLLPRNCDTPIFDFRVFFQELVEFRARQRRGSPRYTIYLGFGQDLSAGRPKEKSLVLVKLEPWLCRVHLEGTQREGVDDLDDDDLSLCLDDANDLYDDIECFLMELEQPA
Strand | fitted relative affinity [z-score]
TTCATTTTGTGTCTGGGCATGTGCTAG | 1.31
TCATAATTTACTTTGGTACTGTGCTAG | 0.724
GACGATCTCCTTTTCCTGACGTGCTAG | 1.76
GACGATTTCTGTTTCGAGACGTGCTAG | 5.02
GACAATTTCAGTCTCGAGACGTGCTAG | 0.826
GACGGTTTCGGAACTGGGGACGTGCTA | 4.44
TTAGGTATCGGGCATCGGTTAGTGCTA | -0.15
TCAATCATTGTTTTCAGACTGTGCTAG | 0.971
TGAGATATCGGGTTTCGATTAGTGCTA | 2.37
TTAGATTTCGAGTATCGATTAGTGCTA | 1.38
GACGGTTTCCATCTCCTGACGTGCTAG | 3.69
GACGATATCCGGTATCGAGACGTGCTA | 0.957
TTGGGTCTCGGTTTCGGTTAGTGCTAG | 6.44
GTAGTAATCTTAAGGCTGTCGTGCTAG | -0.221
GACGGTCTCGGTATCGGGAAGTGCTAG | 0.194

Set 4
Target: CCNB3, cyclin fold, Cln2 fusion (human)
Method: yeast growth competition, sequencing
Sample: yeast
Notes: weak parent motif
Baseline: not given
Reading: higher = stronger binding
Starting sequence: INSM1 docking peptide (human); PKAIRKLHFEDEV; partner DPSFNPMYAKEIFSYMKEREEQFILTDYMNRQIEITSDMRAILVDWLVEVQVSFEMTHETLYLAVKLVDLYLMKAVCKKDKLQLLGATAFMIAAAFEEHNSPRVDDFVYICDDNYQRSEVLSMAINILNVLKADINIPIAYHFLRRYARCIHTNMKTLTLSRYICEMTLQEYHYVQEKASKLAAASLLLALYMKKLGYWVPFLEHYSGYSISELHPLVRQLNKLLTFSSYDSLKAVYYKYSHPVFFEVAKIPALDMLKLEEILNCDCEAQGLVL
Change | normalised enrichment score
E10I | -0.00588
I4H | 0.0286
H8S | 0.393
I4N | 0.452
I4S | 0.357
K2P | 0.0688
A3H | 0.436
A3G | 0.469
F9G | -0.0354
I4Q | 0.0963
K6C | -0.18

Repeated from above (set 2):
Modification | mean fluorescence intensity [a.u.]
2'F-ANA at 2 3 4 5 7 9 11 12 | 183
2'F-ANA at 1 3 6 7 8 10 14 | 64
2'F-ANA at 2 3 7 8 10 12 13 15 | 387
2'F-ANA at 1 3 4 5 6 7 8 10 11 14 15 | 58.4
2'F-ANA at 1 2 3 4 6 7 8 10 13 | 66.8
2'F-ANA at 2 4 5 7 10 11 12 14 15 | 45.1
2'F-ANA at 2 4 7 8 9 13 15 | 209
